{"data": "Measurements from different studies", "note": "A part holds a random share of what one study measured. “And” joins repeats or separate records; there may be more than shown.", "UniProt Q9H422, sequence (whole entry, looked up)": "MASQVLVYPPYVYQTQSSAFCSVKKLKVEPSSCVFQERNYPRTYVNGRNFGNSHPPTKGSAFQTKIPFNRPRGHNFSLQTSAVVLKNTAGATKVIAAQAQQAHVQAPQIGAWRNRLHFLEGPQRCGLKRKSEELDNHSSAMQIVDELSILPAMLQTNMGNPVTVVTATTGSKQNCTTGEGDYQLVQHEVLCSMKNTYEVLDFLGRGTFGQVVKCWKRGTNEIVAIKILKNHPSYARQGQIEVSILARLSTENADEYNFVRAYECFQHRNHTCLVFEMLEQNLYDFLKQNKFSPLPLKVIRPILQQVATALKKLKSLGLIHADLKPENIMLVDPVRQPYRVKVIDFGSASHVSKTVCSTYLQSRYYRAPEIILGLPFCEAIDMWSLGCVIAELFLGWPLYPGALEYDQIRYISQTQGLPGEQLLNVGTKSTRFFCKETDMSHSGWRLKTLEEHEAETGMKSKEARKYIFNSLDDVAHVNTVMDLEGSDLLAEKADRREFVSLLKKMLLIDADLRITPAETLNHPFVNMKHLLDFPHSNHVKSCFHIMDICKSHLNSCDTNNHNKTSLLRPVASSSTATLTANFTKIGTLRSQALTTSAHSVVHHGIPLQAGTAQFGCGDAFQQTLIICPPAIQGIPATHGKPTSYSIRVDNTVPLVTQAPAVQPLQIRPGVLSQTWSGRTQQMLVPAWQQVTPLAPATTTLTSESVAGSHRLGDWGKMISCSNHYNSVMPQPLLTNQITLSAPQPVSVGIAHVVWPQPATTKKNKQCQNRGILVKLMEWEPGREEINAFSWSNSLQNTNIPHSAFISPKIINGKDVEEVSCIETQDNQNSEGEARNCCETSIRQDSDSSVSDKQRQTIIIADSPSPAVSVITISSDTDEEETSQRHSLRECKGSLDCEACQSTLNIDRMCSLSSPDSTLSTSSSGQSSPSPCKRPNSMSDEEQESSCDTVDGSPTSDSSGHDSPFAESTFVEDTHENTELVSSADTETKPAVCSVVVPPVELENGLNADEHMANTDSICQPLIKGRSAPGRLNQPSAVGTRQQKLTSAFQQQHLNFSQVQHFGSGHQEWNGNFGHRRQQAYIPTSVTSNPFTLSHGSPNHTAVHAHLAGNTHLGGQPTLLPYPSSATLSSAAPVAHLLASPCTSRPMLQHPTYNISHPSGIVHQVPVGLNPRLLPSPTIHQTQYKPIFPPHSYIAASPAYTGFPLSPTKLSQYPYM", "UniProt Q12866, sequence (whole entry, looked up)": "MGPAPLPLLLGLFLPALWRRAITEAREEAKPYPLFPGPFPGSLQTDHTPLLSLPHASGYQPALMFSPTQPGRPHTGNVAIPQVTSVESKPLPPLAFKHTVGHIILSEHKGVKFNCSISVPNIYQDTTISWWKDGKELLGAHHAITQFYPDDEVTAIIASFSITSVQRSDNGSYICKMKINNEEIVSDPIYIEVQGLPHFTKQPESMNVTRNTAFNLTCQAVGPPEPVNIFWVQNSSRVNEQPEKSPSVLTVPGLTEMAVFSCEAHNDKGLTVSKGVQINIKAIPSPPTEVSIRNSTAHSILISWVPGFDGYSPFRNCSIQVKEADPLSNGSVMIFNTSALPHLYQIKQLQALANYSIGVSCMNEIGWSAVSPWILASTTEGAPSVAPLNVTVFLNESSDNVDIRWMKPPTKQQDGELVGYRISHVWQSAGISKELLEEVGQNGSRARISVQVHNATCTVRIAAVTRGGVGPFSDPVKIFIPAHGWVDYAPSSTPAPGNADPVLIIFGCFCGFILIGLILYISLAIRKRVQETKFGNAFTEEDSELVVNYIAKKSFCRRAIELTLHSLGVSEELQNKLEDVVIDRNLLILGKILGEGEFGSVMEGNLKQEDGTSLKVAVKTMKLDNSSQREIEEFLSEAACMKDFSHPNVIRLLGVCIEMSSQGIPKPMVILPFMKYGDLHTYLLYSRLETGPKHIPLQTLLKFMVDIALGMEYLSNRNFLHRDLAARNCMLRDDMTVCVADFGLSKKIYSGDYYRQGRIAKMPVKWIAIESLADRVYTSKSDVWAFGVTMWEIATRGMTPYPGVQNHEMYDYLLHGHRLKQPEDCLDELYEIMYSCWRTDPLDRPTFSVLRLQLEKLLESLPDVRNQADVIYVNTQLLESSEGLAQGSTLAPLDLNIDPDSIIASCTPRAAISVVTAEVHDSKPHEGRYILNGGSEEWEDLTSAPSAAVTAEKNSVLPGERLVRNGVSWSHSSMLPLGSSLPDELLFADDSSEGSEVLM", "UniProt Q9HC98, sequence (whole entry, looked up)": "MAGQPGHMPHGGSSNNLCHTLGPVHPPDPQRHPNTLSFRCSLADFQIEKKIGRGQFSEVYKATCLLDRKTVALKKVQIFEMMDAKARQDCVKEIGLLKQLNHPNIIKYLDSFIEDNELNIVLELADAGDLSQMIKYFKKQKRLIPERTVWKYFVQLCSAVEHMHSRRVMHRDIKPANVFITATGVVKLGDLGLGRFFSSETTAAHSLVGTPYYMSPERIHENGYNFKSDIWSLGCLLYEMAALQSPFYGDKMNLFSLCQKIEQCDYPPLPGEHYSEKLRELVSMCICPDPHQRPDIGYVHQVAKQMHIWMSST", "UniProt Q9C098, sequence (whole entry, looked up)": "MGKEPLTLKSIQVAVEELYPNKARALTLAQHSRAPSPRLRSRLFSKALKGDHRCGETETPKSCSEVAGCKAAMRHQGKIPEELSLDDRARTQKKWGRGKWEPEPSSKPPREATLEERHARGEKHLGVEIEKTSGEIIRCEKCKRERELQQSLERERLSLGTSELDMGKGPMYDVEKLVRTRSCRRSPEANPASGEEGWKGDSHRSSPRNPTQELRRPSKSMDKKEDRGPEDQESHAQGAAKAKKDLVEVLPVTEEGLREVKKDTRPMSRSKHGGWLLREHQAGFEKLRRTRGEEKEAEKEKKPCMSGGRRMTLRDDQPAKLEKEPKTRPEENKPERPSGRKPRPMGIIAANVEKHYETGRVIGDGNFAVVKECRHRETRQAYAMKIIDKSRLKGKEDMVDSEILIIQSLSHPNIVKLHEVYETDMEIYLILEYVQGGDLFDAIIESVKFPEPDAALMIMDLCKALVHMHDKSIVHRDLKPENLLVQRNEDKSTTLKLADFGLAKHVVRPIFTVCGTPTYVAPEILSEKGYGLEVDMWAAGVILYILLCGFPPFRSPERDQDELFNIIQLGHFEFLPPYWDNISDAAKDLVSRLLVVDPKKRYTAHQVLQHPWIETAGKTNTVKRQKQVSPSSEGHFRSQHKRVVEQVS", "UniProt P00519, sequence (whole entry, unmodified, looked up)": "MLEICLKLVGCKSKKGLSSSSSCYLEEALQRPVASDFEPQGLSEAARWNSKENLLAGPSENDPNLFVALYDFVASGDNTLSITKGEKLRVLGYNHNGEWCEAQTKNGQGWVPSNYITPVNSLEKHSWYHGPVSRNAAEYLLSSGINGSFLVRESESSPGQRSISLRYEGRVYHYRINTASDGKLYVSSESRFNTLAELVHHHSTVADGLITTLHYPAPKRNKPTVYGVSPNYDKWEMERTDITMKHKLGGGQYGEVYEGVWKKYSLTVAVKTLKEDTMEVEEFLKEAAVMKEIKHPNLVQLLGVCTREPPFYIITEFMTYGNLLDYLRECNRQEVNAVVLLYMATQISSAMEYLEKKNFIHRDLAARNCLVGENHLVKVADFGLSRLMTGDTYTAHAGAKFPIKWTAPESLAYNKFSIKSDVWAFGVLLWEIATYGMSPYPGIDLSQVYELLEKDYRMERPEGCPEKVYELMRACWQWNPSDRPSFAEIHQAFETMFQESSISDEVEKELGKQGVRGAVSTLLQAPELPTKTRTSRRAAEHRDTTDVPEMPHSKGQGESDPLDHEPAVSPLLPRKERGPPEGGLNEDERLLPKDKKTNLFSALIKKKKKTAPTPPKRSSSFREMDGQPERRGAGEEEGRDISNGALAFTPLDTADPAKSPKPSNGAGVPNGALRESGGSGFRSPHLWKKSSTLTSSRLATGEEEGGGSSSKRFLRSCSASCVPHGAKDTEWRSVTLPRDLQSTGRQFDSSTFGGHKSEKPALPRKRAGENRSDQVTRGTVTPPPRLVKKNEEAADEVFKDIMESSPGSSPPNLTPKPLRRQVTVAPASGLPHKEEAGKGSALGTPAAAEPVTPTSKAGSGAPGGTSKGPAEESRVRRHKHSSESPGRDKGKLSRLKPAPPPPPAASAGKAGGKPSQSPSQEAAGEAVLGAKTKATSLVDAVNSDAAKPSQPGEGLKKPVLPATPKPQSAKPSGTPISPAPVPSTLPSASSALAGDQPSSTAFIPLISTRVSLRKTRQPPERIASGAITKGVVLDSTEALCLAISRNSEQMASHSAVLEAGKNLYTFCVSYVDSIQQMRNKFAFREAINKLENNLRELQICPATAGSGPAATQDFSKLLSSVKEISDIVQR", "UniProt P36894, sequence (whole entry, looked up)": "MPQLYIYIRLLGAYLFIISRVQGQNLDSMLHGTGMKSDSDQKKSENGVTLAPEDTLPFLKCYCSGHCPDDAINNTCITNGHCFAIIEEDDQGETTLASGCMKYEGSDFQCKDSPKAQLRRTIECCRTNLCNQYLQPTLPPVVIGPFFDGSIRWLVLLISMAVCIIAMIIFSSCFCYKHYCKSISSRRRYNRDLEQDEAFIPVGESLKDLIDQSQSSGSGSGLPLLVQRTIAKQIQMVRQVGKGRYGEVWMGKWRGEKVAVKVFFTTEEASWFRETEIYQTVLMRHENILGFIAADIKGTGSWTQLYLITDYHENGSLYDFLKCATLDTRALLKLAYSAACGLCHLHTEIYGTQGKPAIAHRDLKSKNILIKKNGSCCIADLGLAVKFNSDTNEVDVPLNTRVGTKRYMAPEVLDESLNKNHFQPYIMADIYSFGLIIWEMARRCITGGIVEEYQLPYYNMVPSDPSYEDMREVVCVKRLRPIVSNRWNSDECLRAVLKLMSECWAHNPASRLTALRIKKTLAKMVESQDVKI"}
{"data": "Set 1", "host": "mouse", "sample": "microsomes or S9", "tested at": "2 µM", "time": "0.5 h"}
{"SMILES": "O=C(Nc1cccc(F)c1)C1CC(=O)N(Cc2ccccn2)c2nc3ccccc3n21 (centres unmarked)", "remaining compound [%]": 30.5}
{"SMILES": "Cc1ccc(C)c(CNc2cc(-n3ccnc3)ncn2)c1", "remaining compound [%]": 24.4}
{"SMILES": "CCNC(=O)N1CCC(CCOC)(NC(=O)NCC2CCCO2)CC1 (centres unmarked)", "remaining compound [%]": "> 100"}
{"SMILES": "CC(C)C(C)(NC(=O)c1ccccc1C#Cc1ccccc1)C(N)=O (centres unmarked)", "remaining compound [%]": 41.9}
{"SMILES": "CNC(=O)/C(=C/OC)n1c(-c2ccc(F)cc2F)noc1=O", "remaining compound [%]": 33.7}
{"SMILES": "CCOC(=O)CNC(=O)N1Cc2c(sc3c2CCCC3)-n2cccc2C1c1ccc(C(C)C)cc1 (centres unmarked)", "remaining compound [%]": 0.44}
{"SMILES": "O=C(O)CCC(=O)N1N=C(c2nn(-c3ccccc3)cc2-c2ccccc2)CC1c1cccs1 (centres unmarked)", "remaining compound [%]": 99.2}
{"SMILES": "CC(C)(C)/C(=C/c1ccc(Cl)cc1)Cn1ccnc1", "remaining compound [%]": 97.8}
{"SMILES": "CCCn1c(=O)oc2cc(NC(=O)Nc3ccccc3OCC)ccc21", "remaining compound [%]": 7.06}
{"data": "Set 2", "SMILES": "Cc1nc(N2CC[C@@H](O)C2)ncc1-c1cc(C(F)(F)F)cc2[nH]ncc12", "tested at": "1 µM"}
{"target": "Serine/threonine-protein kinase TBK1 (TBK1, Homo sapiens, UniProt Q9UHD2)", "read-out": "binding", "technique": "competition with immobilised ligand", "remaining binding [%]": 82}
{"target": "Serine/threonine-protein kinase DCLK3 (DCLK3, Homo sapiens, UniProt Q9C098)", "read-out": "binding", "technique": "competition with immobilised ligand", "remaining binding [%]": 96}
{"target": "Phosphatidylinositol 4,5-bisphosphate 3-kinase catalytic subunit alpha isoform (PIK3CA, Homo sapiens, UniProt P42336, H1047L)", "read-out": "cell-free assay", "technique": "competition with immobilised ligand", "remaining binding [%]": 93}
{"target": "NUAK family SNF1-like kinase 2 (NUAK2, Homo sapiens, UniProt Q9H093)", "read-out": "binding", "technique": "competition with immobilised ligand", "remaining binding [%]": 67}
{"target": "Receptor-type tyrosine-protein kinase FLT3, autoinhibited (FLT3, Homo sapiens, UniProt P36888)", "read-out": "binding", "technique": "competition with immobilised ligand", "remaining binding [%]": 87}
{"target": "Focal adhesion kinase 1 (PTK2, Homo sapiens, UniProt Q05397)", "read-out": "binding", "technique": "competition with immobilised ligand", "remaining binding [%]": 86}
{"target": "Tyrosine-protein kinase ABL1, phosphorylated (ABL1, Homo sapiens, UniProt P00519, F317I)", "read-out": "binding", "remaining binding [%]": 87}
{"target": "Homeodomain-interacting protein kinase 3 (HIPK3, Homo sapiens, UniProt Q9H422)", "read-out": "binding", "technique": "competition with immobilised ligand", "remaining binding [%]": 54}
{"target": "Serine/threonine-protein kinase Nek6 (NEK6, Homo sapiens, UniProt Q9HC98)", "read-out": "binding", "technique": "competition with immobilised ligand", "remaining binding [%]": 89}
{"target": "Tyrosine-protein kinase Mer (MERTK, Homo sapiens, UniProt Q12866)", "read-out": "cell-free assay", "technique": "competition with immobilised ligand", "remaining binding [%]": 100}
{"target": "Casein kinase II subunit alpha (CSNK2A1, Homo sapiens, UniProt P68400)", "read-out": "cell-free assay", "technique": "competition with immobilised ligand", "remaining binding [%]": 85}
{"target": "Serine/threonine-protein kinase Nek1 (NEK1, Homo sapiens, UniProt Q96PY6)", "read-out": "binding", "technique": "competition with immobilised ligand", "remaining binding [%]": 100}
{"target": "Bone morphogenetic protein receptor type-1A (BMPR1A, Homo sapiens, UniProt P36894)", "read-out": "binding", "technique": "competition with immobilised ligand", "remaining binding [%]": 100}
{"target": "Serine/threonine-protein kinase B-raf (BRAF, Homo sapiens, UniProt P15056, V600E)", "read-out": "cell-free assay", "technique": "competition with immobilised ligand", "remaining binding [%]": 77}
{"target": "cAMP-dependent protein kinase catalytic subunit beta (PRKACB, Homo sapiens, UniProt P22694)", "read-out": "cell-free assay", "technique": "competition with immobilised ligand", "remaining binding [%]": 79}
{"data": "Set 3", "cell line": "mouse MPNST tumor cells", "technique": "high-content immunofluorescence imaging", "refers to": "nuclear SOX9", "tested at": "10 µM", "time": "12 h", "notes": "mean of 2 replicates", "baseline": "DMSO control", "reading": "higher = more nuclear SOX9"}
{"SMILES": "CN1CCc2ccccc2Cc2[nH]c3ccccc3c2CC1", "nuclear SOX9 intensity": "107 % of DMSO"}
{"SMILES": "COc1cccc(N(C)C(=S)Oc2ccc3c(c2)CCCC3)n1", "nuclear SOX9 intensity": "116 % of DMSO"}
{"SMILES": "Cn1cnc2ncn(Cc3nc(CCc4ccc(Cl)cc4)no3)c(=O)c21", "nuclear SOX9 intensity": "102 % of DMSO"}
{"SMILES": "Nc1nc(/C(=C/CC(=O)O)C(=O)N[C@@H]2C(=O)N3C(C(=O)O)=CCS[C@H]23)cs1", "nuclear SOX9 intensity": "95 % of DMSO"}
{"SMILES": "OCCN1C[C@H](O)[C@@H](O)[C@H](O)[C@H]1CO", "nuclear SOX9 intensity": "91.3 % of DMSO and 96.8 % of DMSO and 105 % of DMSO"}
{"SMILES": "CC(C)(C)NC(=O)[C@@H]1CN(Cc2cccnc2)CCN1C[C@@H](O)C[C@@H](Cc1ccccc1)C(=O)N[C@H]1c2ccccc2C[C@H]1O", "nuclear SOX9 intensity": "93.2 % of DMSO"}
{"data": "Mixed results"}
{"SMILES": "CC(=O)N[C@@H](Cc1c[nH]c2ccccc12)C(=O)N[C@@H](CCC(=O)C=[N+]=[N-])C(=O)OC(C)C", "assay": "UPLC-MS/MS", "test system": "EL4 tumor, C57BL/6 CES1-/- mice, tumor", "conditions": "subcutaneous, 0.3 mg/kg DON equivalent daily, 5 days", "scale": "higher = more metabolite", "endpoint": "threonate level", "result": "1.13e+09 a.u. and 1.44e+09 a.u. and 1.67e+09 a.u. and 1.51e+09 a.u. and 1.46e+09 a.u. and 1.94e+09 a.u."}
{"SMILES": "CC(C)C[C@@H]1NC(=O)[C@@H](N(C)C(=O)[C@H](CC2CCC2)NC(=O)[C@@H]2C[C@@H](F)CN2C(=O)C2(C(F)(F)F)CC(F)(F)C2)CCCCNC(=O)C2(CC2)NC(=O)[C@H](Cc2cc(Cl)ccc2Cl)N(C)C1=O", "tested on": "NCI-H446", "assay": "flow cytometry", "conditions": "20 nM, 3 days, without Mps1 inhibitor", "endpoint": "cleaved PARP positive cells", "result": "24.3% and 29% and 25.1%"}
{"note": "Excerpt of the above (mixed results):"}
{"SMILES": "CC(=O)N[C@@H](Cc1c[nH]c2ccccc12)C(=O)N[C@@H](CCC(=O)C=[N+]=[N-])C(=O)OC(C)C", "assay": "UPLC-MS/MS", "test system": "EL4 tumor, C57BL/6 CES1-/- mice, tumor", "conditions": "subcutaneous, 0.3 mg/kg DON equivalent daily, 5 days", "scale": "higher = more metabolite", "endpoint": "threonate level", "result": "1.13e+09 a.u. and 1.44e+09 a.u. and 1.67e+09 a.u. and 1.51e+09 a.u. and 1.46e+09 a.u. and 1.94e+09 a.u."}
{"SMILES": "CC(C)C[C@@H]1NC(=O)[C@@H](N(C)C(=O)[C@H](CC2CCC2)NC(=O)[C@@H]2C[C@@H](F)CN2C(=O)C2(C(F)(F)F)CC(F)(F)C2)CCCCNC(=O)C2(CC2)NC(=O)[C@H](Cc2cc(Cl)ccc2Cl)N(C)C1=O", "tested on": "NCI-H446", "assay": "flow cytometry", "conditions": "20 nM, 3 days, without Mps1 inhibitor", "endpoint": "cleaved PARP positive cells", "result": "24.3% and 29% and 25.1%"}
